# Assay results gathered from unrelated publications.
# Every numbered part comes from another study and shows a few of its results, in no order.

# Sample 1
# Cell line: HEK-293T/ACE2
# Tested at: 10 µM
# Time: 16 h
# Relative to: vehicle
SMILES,viability [%]
C#C[C@]1(O)CC[C@H]2[C@@H]3CCc4cc(O)ccc4[C@H]3CC[C@@]21C,92.8
CCCCCCCCCCCCCCCCCCCCCCO,101
CC1(C)S[C@@H]2[C@H](NC(=O)Cc3ccccc3)C(=O)N2[C@H]1C(=O)O,101
OC[C@H]1O[C@@H](O[C@@H]2[C@@H](CO)OC(O)(CO)[C@H]2O)[C@H](O)[C@@H](O)[C@H]1O (mixture of isomers),99

# Sample 2
# Target: Centromere-binding protein 1, full length, His-tagged (CBF1, Saccharomyces cerevisiae, UniProt P17106, residues 1-351)
# UniProt P17106, sequence (whole entry, looked up): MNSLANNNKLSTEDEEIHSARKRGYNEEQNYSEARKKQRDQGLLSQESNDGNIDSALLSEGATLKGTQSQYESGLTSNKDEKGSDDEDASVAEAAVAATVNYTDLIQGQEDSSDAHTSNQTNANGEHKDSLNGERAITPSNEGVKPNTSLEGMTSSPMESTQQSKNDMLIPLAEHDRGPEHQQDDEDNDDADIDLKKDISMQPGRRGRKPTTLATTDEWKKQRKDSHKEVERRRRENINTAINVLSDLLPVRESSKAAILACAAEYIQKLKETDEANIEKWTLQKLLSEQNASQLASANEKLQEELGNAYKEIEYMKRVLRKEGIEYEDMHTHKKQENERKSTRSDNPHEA
# Method: competition protein-binding microarray
# Form: double-stranded DNA, one strand shown
# Medium: in vitro
# Tested at: 2 µM
# Notes: whole 60-bp probe, lowest competitor level
# Added: Pho4 competitor, 0.05 µM
# Reading: higher = stronger binding
# All sequences stand within: … GTCTTGATTCGCTTGACGCTGCTG
Sequence,fluorescence intensity
GGAAACGACTGCGAACACGTGCAGATGCAAAGGACA,2040 a.u.
TAGCCCTGTTACTGTCATGTTAGTTATTATCGTTCT,61.1 a.u.
TTTTGTTGTTATATTCACGTGCCAGTTTGCTTTTAT,1650 a.u.
AAATTACTAAGTTGTTGGGTGGGTGACGCCGTATGA,74.8 a.u.
AAAAAAAACCGCCATCACGTAACCGTAGCTTCCACT,74.5 a.u.
GCTCATAAAACCATGCGCGTGTTTTTCTTCCACGGC,110 a.u.
GTCTTGTCTCATTGCTTTGTGGGTGTCCCCACTTCA,88.3 a.u.
CTTCTGTAAATTTGTCACGTTACTTGACGCGCCCCG,950 a.u.

# Sample 3
# Target: RNA binding protein fox-1 homolog 2, RRM domain, GST-SBP tag (RBFOX2, Homo sapiens, UniProt O43251-10, residues 100-194)
# Method: RNA Bind-n-Seq
# Form: RNA
# Medium: in vitro
# Tested at: 365 nM
# Notes: natural RNA segment, single round, ends assumed
# Relative to: no-protein control
# Reading: higher = stronger binding
# All sequences stand within: GGGAGUUCUACAGUCCGACGAUC … UGGAAUUCUCGGGUGCCAA
# Construct (chain): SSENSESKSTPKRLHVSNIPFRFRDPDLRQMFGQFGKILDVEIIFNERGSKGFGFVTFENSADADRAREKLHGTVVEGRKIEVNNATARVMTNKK
Sequence,RBNS enrichment (R)
AGGAACUGCGCCCUGGAAAGGGCUCCCCGAAGUUCUAGGUGGCCUUGACCUGACACUUGCAUUUUCUAGGCCACUCUUUGGGGUGGCUGAGAAUCAUGACAGACCCUCUG,0.283
AGGUUUUUAAAAAGUAGCUCUUCCCCAACCCCGUUGCUAGCUUGUUGCAAUAUAAAAGCCCUGGUGCACCUGAAUUUACUCCUGGCCUUACUAAUGAUUCAUAAUGUGAU,1.26
UACACAUCCAUUACUUAUUCACUCAUCAGACUGUCAUGAAAUAUUUGUGUUGUUCCAGGGCCUGUGCUAAGCACAGGCACCAAACAUAAAAAGAGAGAAAGUCCUUGCUC,0.363
CAUGUGUAAAUGGAAAAUAUGUCUUACAAAUAGAGAUGCACUAAAACAACAAAAACAACAACAAAACAAACGUUUACAUCCUAGGAGGGAAAAAAAACAAAAGUCUUUGU,0.446
AAGGGAGAGGAAGACAUUUUGAAUUUUAAGAGCUUUAUUAUCAGUUUAACCCUCCCUAGUUGAAUGUUAUUUUCUUCUUGUUCCAUUAAGUCAGAAUACAAAUCAGCACA,0.459
AUGUAGCUCAUAGUCCCCACAAUGUCCUGGGAAGGAACAGAGGACUGGUACAGUCCCAGCUCUGCUCUGGUGUAUGCGAUUUUUGAAAGACCUGUCUUCUGUGAGCUGUG,2.06
AAUGCUGUCGAUCAUUGCAAACGCCAUGUGUGGAAUAGUUUCCCAGCUGCAGAAGUCACCUACUUGUGGGUCUAGGGUAAUGAACACAUAGAUCUAUUUGACUUAAUAAG,0.676
CAUUCUCCGAGCCAGCUGUGUUUUACACAAAGCUGUACAAUUGUUAUUGGUUGAGGUCACAAAGAUGAAACUUGUGUCAUUGGAAGUUACCCCUUGCCCCACCCCCACCC,0.344

# Sample 4
# Target: RING finger protein unkempt homolog, zinc fingers 1-6, GST-SBP tag (UNK, Homo sapiens, UniProt Q9C0B0, residues 30-357)
# UniProt Q9C0B0, sequence (30-357, looked up): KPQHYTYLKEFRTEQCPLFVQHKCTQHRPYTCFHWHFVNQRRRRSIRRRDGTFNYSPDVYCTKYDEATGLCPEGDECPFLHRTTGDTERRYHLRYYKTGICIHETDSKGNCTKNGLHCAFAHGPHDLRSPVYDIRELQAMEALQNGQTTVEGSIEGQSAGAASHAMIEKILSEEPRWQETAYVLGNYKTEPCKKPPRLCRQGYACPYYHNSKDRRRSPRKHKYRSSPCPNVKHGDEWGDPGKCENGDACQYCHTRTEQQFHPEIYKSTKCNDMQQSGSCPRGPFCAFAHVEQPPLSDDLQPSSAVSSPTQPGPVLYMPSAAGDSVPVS
# Method: RNA Bind-n-Seq
# Form: RNA
# Medium: in vitro
# Tested at: not given
# Notes: RNA with constant flanks, human and mouse sites, ends assumed
# Relative to: input RNA pool
# Reading: higher = stronger binding
# All sequences stand within: GGGAGUUCUACAGUCCGACGAUC … CAACAGAGGAUUGAGCAUCA
Sequence,bound/input enrichment [ratio]
UUAUGUCUUAUAAUCCUGCAUCACUUCCAUCCUAUCCAGUCAUAUCUAAUGUAGAAAAAUUAGUUUCCAGUGAAAGUAAUAUGUAGUGCUUUUAUGAUAUUUGUGUGCAAUAUCCCCUCU,18.1
CUGAACCUUCAAGAUACUGAAUAUAGCUUAUCUUCUUUUCCUUUUAUGUUAUUAAACUACACAAGCAUUGAGGAUUUCUAUCGGUCUUGUUACAAGAUUUUGAUCCCACAUUUGGUAAUC,0.196
CAUAUUCAUUGGGCUGUUGUAUUCAGCCAGUCUCAUGCUUUCCCUGGGUCUUCACGGAUUGCUUUCCAAGCUGCCUUGUUGCGGGGUUGCUGCAGAGCAGCAACUGGACCUUUCCAGCUG,0.148
AUCAUCAAAUACAUCGUUAAUCGAGGAGAACAUAAAAAUGGUGUCCUAGAAGAGGCGAUAAUUGCAACAAUUCUUAAGGAGGUUUUGGAAGGUUUAGACUAUCUGCACAGAAACGGUCAG,0.238
CUGAAAAACACAGAUAUCAAAGUUGUUGACUUUGGAAGUGCAACGUAUGAUGAUGAACAUCACAGUACUUUGGUGUCUACCCGGCACUACAGAGCUCCCGAGGUCAUUUUGGCUUUAGGU,0.323
CAUUUUGUGUUUGUGUGAACACGCAGCGCUCAGUGGUGCAUGCCAUUUCCGUGUGGGUUGCUGUUUCUGCUCCUCACUGGUCUUACGUGUUUCCCUUUCCUUCGUUUGGUUGGUUGGUGG,0.115
ACUCACCCUGAGGAGUCUCCAGGGAUGGAGGUGGGGCAUGCGGCCACUGGUCGGUGCUGCCUGGUCCUGGCCUGGGGCAGAGCCUGUGUGUUCUUCACCUGUGCCUGCUCCUGGUGGUCU,0.0735
GAAGAAGCACCAAGCACUUCAGGAAUGGGUUUCCAUGCUCCAAAAAUUGGUAGCAAUGGUGUCGAGAUGGCAGCCAAAUUUCCCAGUGGUUCUCAGAGGGCGAGAGUAGUGAAUACAGAC,0.239

# Sample 5
# Target: Replicase polyprotein 1ab, nsp13 helicase (rep, Severe acute respiratory syndrome coronavirus 2, UniProt P0DTD1)
# Mode: inhibitor
# Tested at: 20 µM
Structure (SMILES),inhibition [%]
CC(=C\c1ccc(Cl)cc1)/C(C)=N/O,2.08
CCOCCOc1ccccc1C(N)=O,3.74
O=C(O)c1ccc(OCCn2ccnc2)cc1,0.93
N#CC(=C(/N)Sc1ccccc1N)/C(C#N)=C(\N)Sc1ccccc1N,4.12
Cc1ccc(S(N)(=O)=O)cc1,3.13
C=C(C)[C@@H]1CC=C(CO)CC1,0.9
O=C1OC(CN2CCOCC2)CN1/N=C/c1ccc([N+](=O)[O-])o1 (centres unmarked),4.01
Cc1ccccc1-n1c(CF)nc2ccc(N)cc2c1=O,1.36
C#C[C@]1(O)CC[C@H]2[C@@H]3CCC4=CCCC[C@@H]4[C@H]3C(=C)C[C@@]21CC,5.73
CC(C)(O)CNc1nc(Nc2ccnc(C(F)(F)F)c2)nc(-c2cccc(C(F)(F)F)n2)n1,4.15
CNC(=O)O[C@H]1COc2ccc(N3CCN(C4COC4)CC3)cc2[C@@H]1NC(=O)c1ccc(F)cc1,2.83
O=C(NC1CCN(CCc2c[nH]c3ccccc23)CC1)c1ccccc1,-2.08
CN(C)C(=O)Oc1cc(OC(=O)N(C)C)cc(C(O)CNC(C)(C)C)c1 (centres unmarked),12.8
O=C1Cc2c([nH]c3ccc(Br)cc23)-c2ncccc2N1,14.8
CCC(CC)O[C@@H]1C=C(C(=O)O)C[C@H](N)[C@H]1NC(C)=O,0.92
C=CCc1ccccc1OCC(O)CNC(C)C (centres unmarked),7.45
OC[C@H]1O[C@H](O[C@]2(CCl)O[C@H](CCl)[C@@H](O)[C@@H]2O)[C@H](O)[C@@H](O)[C@H]1Cl,-1.45
COc1ccnc(C[S+]([O-])c2nc3cc(OC(F)F)ccc3[nH]2)c1OC (centres unmarked),-14.8
CN(C)c1ccc2c(c1)Sc1cc(N(C)C)ccc1N2,71.6
Oc1nc(O)c2nc(O)[nH]c2n1,-6.87
Cn1ncnc1[C@H]1c2n[nH]c(=O)c3cc(F)cc(c23)N[C@@H]1c1ccc(F)cc1,0.36
CC(C)(N)Cc1ccccc1,1.17
CC(=O)O[C@]1(C(C)=O)CC[C@H]2[C@@H]3C[C@H](C)C4=CC(=O)CC[C@]4(C)[C@H]3CC[C@@]21C,1.87
CCCCc1cc2ccccc2c(OCCN(C)C)n1,6.55
O=C(CCCCCCC(=O)Nc1cccnc1)NO,0.03

# Sample 6
# Target: Replicase polyprotein 1ab, main protease (rep, Severe acute respiratory syndrome coronavirus 2, UniProt P0DTD1)
# Effect on: enzyme activity
# Mode: inhibitor
# Tested at: 20 µM
# Notes: hit confirmation
Compound,inhibition [%]
CC[n+]1c(-c2ccccc2)c2cc(N)ccc2c2ccc(N)cc21,60.2
C=C1C(=O)[C@]23[C@H](O)[C@H]1CC[C@@H]2[C@@]12CO[C@]3(O)C[C@@H]1C(C)(C)CC[C@@H]2O,95.1
CO[C@H]1C([C@@]2(C)O[C@@H]2CC=C(C)C)[C@]2(CC[C@H]1OC(=O)NC(=O)CCl)CO2 (some centres unmarked),58.2

# Some of these lines once more (sample 4):
Sequence,bound/input enrichment [ratio]
CUGAACCUUCAAGAUACUGAAUAUAGCUUAUCUUCUUUUCCUUUUAUGUUAUUAAACUACACAAGCAUUGAGGAUUUCUAUCGGUCUUGUUACAAGAUUUUGAUCCCACAUUUGGUAAUC,0.196
CAUAUUCAUUGGGCUGUUGUAUUCAGCCAGUCUCAUGCUUUCCCUGGGUCUUCACGGAUUGCUUUCCAAGCUGCCUUGUUGCGGGGUUGCUGCAGAGCAGCAACUGGACCUUUCCAGCUG,0.148
AUCAUCAAAUACAUCGUUAAUCGAGGAGAACAUAAAAAUGGUGUCCUAGAAGAGGCGAUAAUUGCAACAAUUCUUAAGGAGGUUUUGGAAGGUUUAGACUAUCUGCACAGAAACGGUCAG,0.238
